Measured values from different studies.
“And” joins repeats or separate records; there may be more than shown. ± gives the spread as reported.

| Compound | assay | test system | setting | scale | measurement | value |
| --- | --- | --- | --- | --- | --- | --- |
| Cc1ccc2oc(-c3c4c(N)n[nH]c(=O)c4nn3-c3ccc(NC(=O)/C=C/CN(C)C)cc3)c(C)c2c1 | – | BALB/c nude mice, NCI-H1581 xenograft | intraperitoneal, 10 mg/kg once daily, 20 days | – | tumour growth inhibition | 74.4% |
| CCc1noc(CC)c1C(=O)O[C@H]1C(C)=C[C@]23C(=O)[C@@H](C=C(CO)[C@@H](O)[C@]12O)[C@H]1[C@@H](C[C@H]3C)C1(C)C | – | SKH1 mice, UV-induced skin tumours | topical, dose not given, gel, two consecutive days | – | tumour clearance | > 50% |
| NC(N)=NCCCC(NC(=O)C1=C(CCNc2ccc3onc(-c4cc(Cl)c(O)cc4O)c3c2)C(O)C=C1)C(=O)O (stereo not shown) | – | BALB/c nude mice, HCT-116 xenograft | intraperitoneal, 5 and 10 mg/kg | relative to: vehicle | tumour volume | decreased |
| O=C(Cc1ccc(F)cc1)NCCOc1ccc(-c2ccc(F)cc2)nn1 | – | mice MC38 colon tumour | oral, 20 mg/kg, 21 days, added: anti-PD-L1 antibody | – | tumour growth inhibition | 74.5% |
| CN1CCc2cc(Nc3ncc(C(F)(F)F)c(NCc4cc[nH]n4)n3)ccc2C1 | – | mice, GL261 glioma xenograft | oral, 100 mg/kg daily | – | tumour growth inhibition | 70.3% |
| COC(=O)C1CN1S(=O)(=O)c1ccc2cc(C)ccc2c1 (stereo not shown) | – | mice, Lewis lung carcinoma | intraperitoneal, 100 mg/kg, 16 days | – | tumour growth inhibition | 58% |
| COC(=O)N[C@H]1CC[C@@H](Nc2cc(NCc3ccccc3F)n3ncc(C(C)C)c3n2)CC1 | – | mice with HCT-116 xenograft | oral, 15 mg/kg twice daily, 14 days | relative to: vehicle | tumour growth inhibition | 84% |
| Clc1ccc2ccc3[n+](c2c1)[Ir-3]12([c]4ccccc4-3)([c]3ccccc3-c3ccc4ccc(Cl)cc4[n+]31)[n+]1ccccc1-c1cccc[n+]12.F[P-](F)(F)(F)(F)F | – | BALB/c mice, 4T1 allograft | intraperitoneal, 4 mg/kg daily, from day 13 | relative to: negative control | tumour volume | decreased |
| C[C@@H](NC(=O)Cc1ccc(Cl)c(SC2C(=O)CC(c3c(Cl)cccc3Cl)CC2=O)c1)c1cccc2ccccc12 (stereo partly shown) | – | C57BL/6 mice, B16-F10 allograft | oral or intraperitoneal, 100 mg/kg once daily | – | tumour growth | no inhibition |
| CCCCCCCCn1c(-c2cccnc2)nc(-c2ccc(C)cc2)c1-c1ccc(C)cc1 | – | Ehrlich ascites carcinoma-bearing mice | intraperitoneal, 250 mg/kg every other day, day 26 | relative to: vehicle | tumour size reduction | ~66% |
| CCOc1cc(C(C)(C)C)ccc1C1=N[C@@H](c2ccc(Cl)cc2)[C@@H](c2ccc(Cl)cc2)N1C(=O)N1CCN(CC(=O)NCCOCCOCCOCCNC(=O)CN2CCN(C(=O)N3C(c4ccc(C(C)(C)C)cc4OCC)=N[C@@H](c4ccc(Cl)cc4)[C@H]3c3ccc(Cl)cc3)CC2=O)C(=O)C1 | – | nude mice, A549 xenograft | intraperitoneal, 30 mg/kg twice daily, 21 days | – | tumour growth inhibition | 52% and 52.4% |
| O=C(Nc1ccc(C(F)(F)F)cc1Cl)c1cc(Cl)ccc1O | immunohistochemistry | mice LuCaP sample A PDX | oral, 150 mg/kg | – | tumour AR-V7 and Ki67 | inhibited |
| CC1(C)C(=CC=CC=CC=CC2=[N+](CCCCCC(=O)NCCCC[C@@H]3NC(=O)[C@@H](Cc4ccccc4)NC(=O)[C@H](CC(=O)O)NC(=O)CNC(=O)[C@H](CCCNC(=N)N)NC3=O)c3ccc4ccccc4c3C2(C)C)N(CCCCS(=O)(=O)[O-])c2ccc3ccccc3c21 | fluorescence imaging | BALB/c nude mice, orthotopic U87MG-luc glioma | intravenous, 30 nmol, 72 h | – | tumour detection | not detected |
| CCc1nnc(NS(=O)(=O)c2ccc(NC(=S)NC(=O)/C=C/c3ccc(F)cc3)cc2)s1 | – | NXS2 allograft, A/J mice | intraperitoneal, 20 mg/kg daily, 3 weeks, days 17 to 20 | relative to: vehicle | tumour volume | decreased |
| C[N+]1=C(C=CC=CC=C2N(CCCCCC(=O)NCCCC[C@H](NC(=O)[C@@H](CCC(=O)O)NC(=O)[C@@H](CCC(=O)O)NC(=O)[C@@H](CCC(=O)O)NC(=O)CCCCCNC(=O)C3CCC(CNC(=O)CC[C@H](NC(=O)N[C@@H](CCC(=O)O)C(=O)O)C(=O)O)CC3)C(N)=O)c3ccc4ccccc4c3C2(C)C)C(C)(C)c2c1ccc1ccccc21 (stereo partly shown) | FMT imaging | mice bearing PC3pip tumours, PC3pip tumour | 1 nmol | – | tumour uptake | 50.8 ± 2.6 pmol/g |
| CC(=O)[CH](C(C)=O)[Pt-2]1([S+](C)C)[O]C(C)=CC(C)=[O+]1 (stereo not shown) | – | MCF7, BALB/c nude mice, xenograft | intravenous, 5 mg/kg, 30 days, single dose | – | tumour volume | 168 ± 40.2 mm³ |
| Cc1cc(N)c2ccccc2[n+]1CCCCCCCCCCCCCC[n+]1c(C)cc(N)c2ccccc21 | – | NOD/SCID mice, NB12 neuroblastoma xenograft | intraperitoneal, 4.5 mg/kg every other day, 10 days | relative to: vehicle | tumour weight reduction | 65% |
| O=C(O)c1ccc(-c2nc(-c3cccc(C(F)(F)F)c3)cs2)cc1 | – | NB-4 cells, xenograft mice | oral, 20 mg/kg once daily, 7 days | – | tumour growth inhibition | 44% |
| N#Cc1cccc(-c2ccc(=O)n(Cc3cccc(-c4ncc(OCC5CCN(CC(=O)N6CCN(c7ccc8c(c7)C(=O)N(C7CCC(=O)NC7=O)C8=O)CC6)CC5)cn4)c3)n2)c1 (stereo not shown) | – | mice, EBC-1 xenograft | intraperitoneal, 10 mg/kg once daily, 10 days | – | tumour growth inhibition | 85.3% |

For quick reference, copied from above:
| Compound | assay | test system | setting | scale | measurement | value |
| --- | --- | --- | --- | --- | --- | --- |
| O=C(Nc1ccc(C(F)(F)F)cc1Cl)c1cc(Cl)ccc1O | immunohistochemistry | mice LuCaP sample A PDX | oral, 150 mg/kg | – | tumour AR-V7 and Ki67 | inhibited |
| CC1(C)C(=CC=CC=CC=CC2=[N+](CCCCCC(=O)NCCCC[C@@H]3NC(=O)[C@@H](Cc4ccccc4)NC(=O)[C@H](CC(=O)O)NC(=O)CNC(=O)[C@H](CCCNC(=N)N)NC3=O)c3ccc4ccccc4c3C2(C)C)N(CCCCS(=O)(=O)[O-])c2ccc3ccccc3c21 | fluorescence imaging | BALB/c nude mice, orthotopic U87MG-luc glioma | intravenous, 30 nmol, 72 h | – | tumour detection | not detected |
| CCc1nnc(NS(=O)(=O)c2ccc(NC(=S)NC(=O)/C=C/c3ccc(F)cc3)cc2)s1 | – | NXS2 allograft, A/J mice | intraperitoneal, 20 mg/kg daily, 3 weeks, days 17 to 20 | relative to: vehicle | tumour volume | decreased |
